Experimental data gathered from unrelated publications.
± gives the spread as reported. Converted amounts (≈) assume the structure as drawn.

C[C@@H](N)C1CCN(S(=O)(=O)c2cccc3cnccc23)CC1  detectable duration (mouse, plasma; intraperitoneal, 10 mg/kg): ≤ 4 h
CC(C)(O)c1ncc([S@](N)(=O)=NC(=O)Nc2c3c(cc4c2CCC4)CCC3)s1  AUC(0-inf) (human, plasma; oral, 100 mg, single dose, fed, healthy volunteers): 117000 ng·h/mL
CC(C)[C@H](NC(=O)[C@@H]1CCCN1C(=O)[C@H](CCCNC(=N)N)NC(=O)[C@H](CS)NC(=O)[C@H](Cc1c[nH]c2ccccc12)NC(=O)[C@H](CCCNC(=N)N)NC(=O)[C@@H](Cc1ccccc1)NC(=O)[C@H](Cc1c[nH]cn1)NC(=O)[C@H](CCC(=O)O)NC(=O)[C@H](CS)NC(=O)[C@H](CS)NC(=O)[C@@H]1CC(=O)N[C@@H](CCCNC(=N)N)C(=O)NCC(=O)N[C@@H](CC(=O)O)C(=O)N[C@H](Cc2ccc(O)cc2)C(=O)N1)C(N)=O [technetium-99m labelled]  tumour-to-tissue ratio (C57 mice B16/F1 melanoma female; iv, 2 h, added: NDP-MSH blockade; baseline: tumour over blood): 5.8
CC(=O)N[C@H](CSSC[C@H](N)C(=O)O)C(=O)N[C@H](C)C(=O)N[C@H](CCCNC(=N)N)C(=O)N[C@H](CCCNC(=N)N)C(=O)N[C@H](CCCNC(=N)N)C(=O)N[C@H](C)C(=O)N[C@H](CCCNC(=N)N)C(N)=O  AUC(0-inf) (male human, plasma; intravenous, 5 mg, single dose, healthy volunteers): 620 ng·h/mL
CC(C)CCN(c1nc(C#N)nc(NC2COC2)n1)C(C)c1ccc(F)cc1 (stereo not drawn)  brain concentration (female CD-1 mice; intraperitoneal, 10 mg/kg, 2 h): 82.5 ng/g
CCCCN1C(=O)c2cccc3c(NCCN4CCOCC4)ccc(c23)C1=O  average fluorescence lifetime (aqueous medium; pH 6): 6.9 ns
COc1ccc2cc(-c3ccc(-c4ccc(C)cn4)nc3)oc2c1  fluorescence quantum yield (acetonitrile; zinc(II) complex, added: quinine bisulfate reference): 0.34
CC(C)[C@H](NC(=O)CNC(=O)[C@H](CCC(N)=O)NC(=O)[C@H](C)N)C(=O)O  volume of distribution (human, both sexes, plasma; intravenous infusion, 90 mg/kg/h, 2 h infusion, geometric mean): 13 L/kg
CCN1/C(=C/C=C2\CCCC(/C=C/C3=[N+](CC)c4ccccc4C3(C)C)=C2NCCCCCCCCN2CCC(Nc3nc4ccccc4n3Cc3ccc(F)cc3)CC2)C(C)(C)c2ccccc21  aggregate particle size (TEM; saline; 10 µM, main population): ~300 nm
CCCC[C@H](NC(=O)CNC(=O)CNC(=O)CN1CCN(CC(=O)O)CCN(CC(=O)O)CCN(CC(=O)O)CC1)C(=O)N[C@H]1CC(=O)NCCCC[C@@H](C(N)=O)NC(=O)[C@H](Cc2c[nH]c3ccccc23)NC(=O)[C@H](CCCNC(=N)N)NC(=O)[C@@H](Cc2ccccc2)NC(=O)[C@H](Cc2c[nH]cn2)NC1=O [indium-111 labelled]  tumour to skin uptake ratio (C57 mouse, B16/F1 melanoma; 24 h; baseline: tumour over skin): 26
COC(=O)c1ccc(-c2cn(Cc3cc(Cl)ccc3O[11CH3])nn2)cc1  distribution volume VT (PET, 2TCM; rhesus macaque, cerebellum; dose not given): 0.981 mL/cm³
CC(C)[C@H](NC(=O)CNC(=O)[C@H](CCC(N)=O)NC(=O)[C@H](C)N)C(=O)O  volume of distribution (healthy volunteers, LPS endotoxaemia, plasma; intravenous, 45 mg/kg/h, 2 h infusion, geometric mean, added: LPS 2 ng/kg): 2.3 L/kg
CC(C)=CCC[C@](C)(O)[C@H]1CC[C@]2(C)[C@@H]1[C@H](O)C[C@@H]1[C@@]3(C)CC[C@H](O)C(C)(C)[C@@H]3CC[C@]12C  solubility (Tween 20; 72 h, 25 °C): 5370 ± 887 µg/mL (≈ 11.7 mM)
CNC(=O)N[C@]1(C)CCC[C@@]2(C)C3CC[C@@]4(C)C[C@]3(CCC21)CC4=O (single isomer, unassigned)  relative error (processed rat plasma; 1.5 ng/mL, 24 h, 4 °C, autosampler stability; baseline: nominal concentration): -2.7%
CC[C@H](C)[C@H](NC(=O)[C@@H]1CCCN1C(=O)CNC(=O)[C@H](Cc1ccccc1)NC(=O)[C@H](CC(N)=O)NC(=O)[C@H](CC(N)=O)NC(=O)[C@H](CO)NC(=O)[C@H](CO)NC(=O)[C@H](Cc1c[nH]cn1)NC(=O)[C@@H](NC(=O)[C@H](CC(C)C)NC(=O)[C@H](Cc1ccccc1)NC(=O)[C@H](CC(N)=O)NC(=O)[C@H](C)NC(=O)[C@H](CC(C)C)NC(=O)[C@H](CCCNC(=N)N)NC(=O)[C@H](CCC(N)=O)NC(=O)[C@@H](NC(=O)[C@H](C)NC(=O)[C@@H]1CSSC[C@H](NC(=O)[C@@H](N)CCCCN)C(=O)N[C@@H](CC(N)=O)C(=O)N[C@@H]([C@@H](C)O)C(=O)N[C@@H](C)C(=O)N[C@@H]([C@@H](C)O)C(=O)N1)[C@@H](C)O)C(C)C)C(=O)N[C@@H](CC(C)C)C(=O)N[C@@H](CO)C(=O)N1CCC[C@H]1C(=O)N[C@H](C(=O)N[C@@H](CC(N)=O)C(=O)N[C@H](C(=O)NCC(=O)N[C@@H](CO)C(=O)N[C@@H](CC(N)=O)C(=O)N[C@H](C(=O)N[C@@H](Cc1ccc(O)cc1)C(N)=O)[C@@H](C)O)C(C)C)[C@@H](C)O  collision cross section (ion mobility mass spectrometry; ammonium acetate; pH 7.5, monomer ion charge +2): 551.8 ± 3.1 Å²
CSCOC1C(=O)C2(C)C(OCSC)CC3OCC3(OC(C)=O)C2C(OC(=O)c2ccccc2)C2(O)CC(OC(=O)C(O)C(C=C(C)C)NC(=O)OC(C)(C)C)C(C)=C1C2(C)C (stereo not drawn)  AUC(0-t) (male Sprague-Dawley rat, plasma; intravenous, 2 mg/kg): 188 ng·h/mL
CCC1CC2C(C)=CC3C(=O)CCCC3C=CC(C)=CC2C(=O)O1 (stereo not drawn)  concentration (male ICR mice, brain; oral, 30 mg/kg, 60 min): 3.4 ± 2.9 ng/g
CCCC[C@@H]1NC(=O)[C@@H](NC(=O)[C@H](CCC(=O)O)NC(=O)CNC(=O)CN2CCN(CC(=O)O)CCN(CC(=O)O)CCN(CC(=O)O)CC2)CCCCNC(=O)C[C@@H](C(N)=O)NC(=O)[C@H](C(C)C)NC(=O)[C@@H]2CCCN2C(=O)[C@H](CCCNC(=N)N)NC(=O)CNC(=O)[C@H](Cc2c[nH]c3ccccc23)NC(=O)[C@H](CCCNC(=N)N)NC(=O)[C@@H](Cc2ccccc2)NC(=O)[C@H](Cc2c[nH]cn2)NC(=O)[C@H](CCC(=O)O)NC1=O [gallium-67 labelled]  urine excretion (C57 mice, B16/F1 flank melanoma; intravenous, 0.037 MBq, 4 h): 86.6 ± 1.73%
[11CH3]c1ccc2nc(C3CCC3)n(-c3ccc4[nH]ncc4c3)c2n1  absorbed radiation dose (human male, muscle): 1.8 µSv/MBq
CC(O)c1ccc(C2CC3(C)C(CCC3(O)C(F)(F)C(F)(F)F)C3CCC4=CC(=O)CCC4=C23)cc1 (stereo not drawn)  maximal oral bioavailability (rat liver microsomes; 100 % absorption assumed): 57%
CC12CC(c3ccc(S(C)(=O)=O)cc3)C3=C4CCC(=O)C=C4CCC3C1CCC2(O)C(F)(F)C(F)(F)F (stereo not drawn)  total clearance (human, plasma; intravenous, 15.7 µg, [14C] microdose, geometric mean): 7.22 L/h
N=C(N)NCCC[C@@H]1NC(=O)[C@H](Cc2c[nH]c3ccccc23)NC(=O)[C@@H](CC2CCCCC2)NC(=O)[C@@H]2CCCN2C(=O)[C@@H](NC(=O)CCc2ccccc2)CCCNC1=O  distribution rate constant (K12) (C57BL/6J mouse, spinal cord; subcutaneous, 1 mg/kg, single dose, two-compartment model): 0.08 h⁻¹
OCc1cn(Cc2ccc(-c3noc(-c4ccc(OCC[18F])c(C(F)(F)F)c4)n3)cc2)nn1  tissue uptake (Lewis rat, female, blood; intravenous, 0.08333 h): 0.49 ± 0.07 %ID/g
CC(C)c1cnc(-c2cc(Cl)ccc2F)cc1Nc1ccncc1C(=O)NC(CO)CO  patients with related SAE (measured: intracranial tumour haemorrhage; human patients; oral, dose not given, grade 4): 0%
NC[C@@H](C(=O)Nc1ccc(-c2cn[nH]c2)cc1)c1ccccc1  cornea score (OECD 405 eye irritation; New Zealand White rabbit, eye; topical, 0.1%, 56 h (day 3), scale 0 to 4; direction not given): 0
CN1CCC[C@]1(C)/C=C/S(=O)(=O)NC(=O)Nc1c2c(cc3c1CCC3)CCC2  AUC(0-t) (human, plasma; oral, 250 mg, single dose, healthy volunteers): 245000 ng·h/mL
C[C@]12C[C@H](c3ccc(S(C)(=O)=O)cc3)C3=C4CCC(=O)C=C4CC[C@H]3[C@@H]1CC[C@@]2(O)C(F)(F)C(F)(F)F  maximal oral bioavailability (human liver microsomes; 100 % absorption assumed): 94%
C#CCOc1ccc(/C=C2\SC(=O)N(CC(=O)NCc3ccccc3)C2=O)cc1  Kirkwood-Buff integral G2,3 (inverse Kirkwood-Buff integrals; binary solvent mixture; 298.15 K, mole fraction x1 0.95): -338 cm³/mol
CC[C@H](C)[C@H](NC(=O)[C@H](CC(C)C)NC(=O)[C@H](Cc1c[nH]c2ccccc12)NC(=O)[C@H](C)NC(=O)[C@@H](NC(=O)[C@H](Cc1ccccc1)NC(=O)[C@H](CC(=O)O)NC(=O)[C@H](CCCNC(=N)N)NC(=O)[C@H](C)NC(=O)[C@H](C)NC(=O)[C@H](CC(C)C)NC(=O)[C@H](C)NC(=O)[C@H](CC(=O)O)NC(=O)[C@H](CC(C)C)NC(=O)[C@@H](NC(=O)[C@@H](NC(=O)[C@H](C)NC(=O)[C@H](CC(C)C)NC(=O)[C@H](CCC(=O)O)NC(=O)[C@H](CO)NC(=O)[C@H](CO)NC(=O)[C@H](Cc1ccccc1)NC(=O)[C@@H](NC(=O)CNC(=O)[C@H](CCC(=O)O)NC(=O)CNC(=O)[C@@H](N)Cc1c[nH]cn1)[C@@H](C)O)[C@@H](C)O)[C@@H](C)CC)[C@@H](C)CC)C(=O)N[C@@H](C)C(=O)N[C@H](C(=O)N[C@@H](CCCCN)C(=O)N[C@H](C(=O)N[C@H](C(=O)N[C@@H](CC(=O)O)C(=O)N[C@@H](CCCCN)C(=O)N[C@@H](CCCCN)C(=O)O)[C@@H](C)O)[C@@H](C)CC)[C@@H](C)O  AUCtau (immunoaffinity LC-MS/MS; healthy human subjects, plasma; subcutaneous, 5 mg once weekly, day 36 after 6 doses, steady state, geometric mean): 7.65 nM·h
O=C(O)[C@H]1O[C@@H](O[C@H](C[C@H]2c3c(F)cccc3-c3cncn32)[C@H]2CC[C@H](O)CC2)[C@H](O)[C@@H](O)[C@@H]1O  total excretion urine plus faeces (human, urine and faeces; oral, 200 mg, [14C]-navoximod dosed; baseline: dose): 59.7%
C[C@H]1Nc2nc(=O)c3[nH]ccc3n2Cc2ccc(Cl)cc21  exposure ratio (Sprague-Dawley rat, female, plasma; oral, 125 mg/kg/day; baseline: rat over human 15 mg): 33
COc1ccc2c(c1)c(CC(=O)Nc1nnc(CCCCc3ccc(NC(=O)Cc4cccc(OC(F)(F)F)c4)nn3)[se]1)cn2C  fraction in plasma (ICR mouse, whole blood; 0.048 mg/mL, 0.033 h, 37 °C): ~70%
C[C@H]1C[C@@H](Oc2cccc(F)n2)CCN1Cc1cnc(N[11C](C)=O)s1  unchanged radioligand in plasma (rhesus monkey, plasma; dose not given, 90 min, pre-blocking condition): 35%

Repeated from above:
OCc1cn(Cc2ccc(-c3noc(-c4ccc(OCC[18F])c(C(F)(F)F)c4)n3)cc2)nn1  tissue uptake (Lewis rat, female, blood; intravenous, 0.08333 h): 0.49 ± 0.07 %ID/g
CC(O)c1ccc(C2CC3(C)C(CCC3(O)C(F)(F)C(F)(F)F)C3CCC4=CC(=O)CCC4=C23)cc1 (stereo not drawn)  maximal oral bioavailability (rat liver microsomes; 100 % absorption assumed): 57%
C[C@H]1C[C@@H](Oc2cccc(F)n2)CCN1Cc1cnc(N[11C](C)=O)s1  unchanged radioligand in plasma (rhesus monkey, plasma; dose not given, 90 min, pre-blocking condition): 35%
CCCC[C@H](NC(=O)CNC(=O)CNC(=O)CN1CCN(CC(=O)O)CCN(CC(=O)O)CCN(CC(=O)O)CC1)C(=O)N[C@H]1CC(=O)NCCCC[C@@H](C(N)=O)NC(=O)[C@H](Cc2c[nH]c3ccccc23)NC(=O)[C@H](CCCNC(=N)N)NC(=O)[C@@H](Cc2ccccc2)NC(=O)[C@H](Cc2c[nH]cn2)NC1=O [indium-111 labelled]  tumour to skin uptake ratio (C57 mouse, B16/F1 melanoma; 24 h; baseline: tumour over skin): 26
C#CCOc1ccc(/C=C2\SC(=O)N(CC(=O)NCc3ccccc3)C2=O)cc1  Kirkwood-Buff integral G2,3 (inverse Kirkwood-Buff integrals; binary solvent mixture; 298.15 K, mole fraction x1 0.95): -338 cm³/mol
